Measurements gathered from unrelated publications.
Compare with care: the assays were run in different laboratories. “And” joins repeats or separate records; there may be more than shown. Numbers after ± are the reported error.

For `COc1cc(C=CC(=O)O)cc(OC)c1OC`, the inhibition was 16.2% (THP-1; pyroptotic LDH release; 2 µM, 40 min, with: LPS then nigericin).
`COc1cnc2cccc(N3CCc4c(cc(Cn5ccnc5C)cc4-c4cn(C)nc4C(F)(F)F)C3=O)c2c1` gave an EC50 of > 30000 nM (HCC38; cell growth, inhibitor; 120 h).
For `Cn1cc(-c2ccc(-c3cncc(Cl)c3N3CCC4(CCNC4=O)CC3)cc2)cn1`, “log2 fold change” read -2.21 (COLO 205; gene expression, microarray, item: SKP2 mRNA; concentration not given, 2 h; reference: untreated cells).
For `COc1cccc(C(=O)O)c1`, the inhibition was -6.66% (THP-1; pyroptotic LDH release; 2 µM, 40 min, with: LPS then nigericin).
`Cc1ccc2c(Nc3cccc(Cl)c3)nccc2c1NC(=O)c1csc2c(N)ncnc12` gave an EC50 of 2740 nM (HEK293T ATF4-FLuc reporter; ATF4 reporter gene, activator, luciferase reporter).
For `CC(C)n1ncc2c(C(=O)NCC3(C)CNC3)cc(C3CC3)nc21`, the cell protection was -1.3% and 1.3% (coxsackievirus A6; CPE; RD; 0.015 µM).
`CC(C)C[C@H](NC(=O)C[C@H](O)[C@H](CC(C)C)NC(=O)[C@H](Cc1c[nH]cn1)NC(=O)CNC(=O)[C@@H](NC(=O)[C@H](C)NC(=O)[C@H](Cc1c[nH]c2ccccc12)NC(=O)[C@H](CCC(N)=O)NC(=O)[C@@H](Cc1ccccc1)NC(=O)COCCOCCNC(=O)CCC(C(=O)O)N1CCN(CC(=O)O)CCN(CC(=O)O)CCN(CC(=O)O)CC1)C(C)C)C(N)=O` (some centres unmarked) [lutetium-177 labelled] has a tissue uptake of 0.4 ± 0.1 %ID/g (BALB/c nu/nu mice, female, muscle; 100 pmol, 30 min, time course 0.5 h, with: PA 300 µg).
`CN(C)Cc1c(C(=O)NCCOc2ccc(C(=O)NO)cc2)oc2ccccc12` has an EC50 of 380 nM (HEK293T ATF4-FLuc reporter; ATF4 reporter gene, activator, luciferase reporter).
`CC(C)(CO)CO` gave an inhibition of 24.8% (THP-1; pyroptotic LDH release; 2 µM, 40 min, with: LPS then nigericin).
The EC50 of `CCn1cc(-c2cc(Cn3ccnc3)cc3c2CCN([C@H](c2cc(OC)ccn2)C2CC2)C3=O)c(C(F)(F)F)n1` is reported as > 30000 nM (MDST8; cell growth, inhibitor; 120 h).
The inhibition of `NCCOc1cc(C(=O)Nc2cc(OCCN)c3ccccc3n2)nc(C(=O)Nc2cc(OCCN)c3ccccc3n2)c1` is reported as 36.8% (THP-1; pyroptotic LDH release; 2 µM, 40 min, with: LPS then nigericin).
`COc1cc2c(c(OC)c1OC)C(=O)c1c(cc(C)c(O)c1OC)C2=O` gave a viability of 11.5 ± 3.1% (HK-2 co-cultured with HepaRG; MTT; 266.67 µM, 48 h; reference: untreated control).
For `O=C(/C=C/C=C/C=C/C1CCCCC1)NC1=C[C@@](O)(/C=C/C=C/C=C/C(=O)NC2=C(O)CCC2=O)[C@@H]2O[C@@H]2C1=O`, the GI50 was 3540 nM (NCI-H1568; cell growth, CellTiter-Glo; 78 h).
For `O=c1[nH]nc(OCCCc2ccc(Cl)cc2)c(NCc2cccnc2)c1Br`, the EC50 was 5000 nM (HEK293T ATF4-FLuc reporter; ISR reporter gene, activator; 8 h).
Under mRNA level, `CCOC(=O)c1cc(Cl)cc(NC(=O)c2sc(Cl)cc2S(=O)(=O)N(C)c2ccc(OCC)c(OC)c2)c1` is recorded as “increased” (primary mouse glial cells; qPCR, item: ABCA1; concentration not given, 24 h).
For `C[n+]1ccccc1/C=N/O`, the inhibition was 2.65% (THP-1; pyroptotic LDH release; 2 µM, 40 min, with: LPS then nigericin).
`CNC(=O)c1cccc2c(Nc3ccc(NS(C)(=O)=O)cc3OC)c3cccc(C)c3nc12` gave an EC50 of 2390 nM (HEK293T ATF4-FLuc reporter; ATF4 reporter gene, activator, luciferase reporter).
With `CCn1cc(-c2cc(Cn3ccoc3=N)cc3c2CCN([C@@H](C)c2cc(OC)ccn2)C3=O)c(C(F)(F)F)n1` the EC50 was 650 nM (OCUM1; cell growth, inhibitor; 120 h).
The EC50 of `CCCCc1nc2cc(/C=C/C(=O)NO)ccc2n1CCN(CC)CC` is reported as 447 nM (HEK293T ATF4-FLuc reporter; ATF4 reporter gene, activator, luciferase reporter).
`O=C(O)c1cc(O)c2c(c1)C(=O)c1cccc(O[C@@H]3O[C@H](CO)[C@@H](O)[C@H](O)[C@H]3O)c1C2=O` has a cell viability of 9.96 ± 3.33% (HK-2 co-cultured with HepaRG; MTT; 266.67 µM, 48 h; reference: untreated control).

Some of these lines once more:
The EC50 of `CCCCc1nc2cc(/C=C/C(=O)NO)ccc2n1CCN(CC)CC` is reported as 447 nM (HEK293T ATF4-FLuc reporter; ATF4 reporter gene, activator, luciferase reporter).
